Results of several laboratories.
Parts stem from different laboratories: compare values within a part only.

Set 1 — technique: protein-binding microarray; molecule type: double-stranded DNA, one strand shown; matrix: in vitro; tested at: 940 nM top; notes: 60-bp whole probe; added: salmon DNA 0.4 mg/ml; baseline: random background probes; direction: higher = stronger binding; constant ends, left off below: GCCTAGCAC … GTCTTGATTCGCTTGACGCTGCTG
Target: Interferon regulatory factor 5, full length, phosphomimetic (IRF5, Homo sapiens, UniProt Q13568-2, residues 1-514, S451D/S453D/S456D/S462D)
Under “fitted relative affinity”, `TTAGATATCGGGTATCGATCAGTGCTA` is recorded as 2.86 z-score.
`GACGCTTTCAGTTCCGAGACGTGCTAG` — result for “fitted relative affinity”: 1.86 z-score.
`AAGAGTTTCCCTCCCTGAGTGTGCTAG`: “fitted relative affinity” 1.14 z-score.
Under “fitted relative affinity”, `TTAGATATCGGGATTCGATTAGTGCTA` is recorded as 0.303 z-score.
`GACTGTATCCTTCTCCTGACGTGCTAG` — result for “fitted relative affinity”: 0.582 z-score.
`GACGGTATCGGGTTTCGGGGCGTGCTA`: “fitted relative affinity” 5.56 z-score.
`TGAGGTATCCTTCTCCTTTAGTGCTAG` — result for “fitted relative affinity”: 0.456 z-score.
`CTGTTTTTGCTTTCCTTCTTGTGCTAG` — result for “fitted relative affinity”: 2.28 z-score.
`TTAGTACTGGGGTATCGGTTAGTGCTA` — result for “fitted relative affinity”: 2.82 z-score.

Set 2 — technique: RNA Bind-n-Seq; molecule type: RNA; matrix: in vitro; tested at: 365 nM; baseline: no-protein control; direction: higher = stronger binding
Target: RNA binding protein fox-1 homolog 2, RRM domain, GST-SBP tag (RBFOX2, Homo sapiens, UniProt O43251-10, residues 100-194)
Notes: natural RNA segment, single round, ends assumed
Constant ends, left off below: GGGAGUUCUACAGUCCGACGAUC … UGGAAUUCUCGGGUGCCAA
`GCACCAUGCCAACCAGCCCUGCGCGAAGACAGAGUGAGCCACGCCCGGAUGGCAGGGCAUGUUUCUGUUUUGGUGUCUCACUUUCCUCCCAGCGUGACUUAUUUGGGGAU`: “RBNS enrichment (R)” 1.82.
For `AACCCAAAUCUAAUGUUCAUGUGUUCAAGGAACCUUCUUCCAUUAUGUAACAGAACAGUCUAGAGAAGAUUAAGGACCACAUGGCUUUCUUGCUCUACUUGAAAUUAAUU`, “RBNS enrichment (R)” read 0.508.
`UUUGGAGCAGAUCCUGUCUGCAUUAUCAGGAAACCAGCAAUUCAGUUCACGGGUCAGCAGUGGCAGCUCGACCCACUCGCAAACACUUCACGGAUACACCAGCAGUGUUG`: “RBNS enrichment (R)” 1.4.
Under “RBNS enrichment (R)”, `UGGGCCACCAAGCUAGGCUAAGAAAGAGGUUUUAAUUGUGGUUUCUUUCCUGCAGUGCUGUCCCCAACCCCGUGUAGCUCUGUUAUUACCAUAGGGGACUUGGUUUUGGA` is recorded as 0.534.
`UUGGCUGGGAGGCCGCGGGAGGGAGGCCAGGAGGCCCGGACCAGUUGGGAGGAGUGAGCAGGCCCCGGGGGAGGGGGAUGAGCGCAGUUUGCUCGCUUUCCUCCCCUGCC`: “RBNS enrichment (R)” 0.734.
`UCAUGUCCGCCUAAUUGAUGUAGUAUGAAACCCUGCAUCUUUAAGGAAAAGAUUAAAAUAGUAAAAUAAAAGUAUUUAAACUUUCCUGAUAUUUAUGUACAUAUUAAGAU` — result for “RBNS enrichment (R)”: 0.488.

Set 3 — technique: universal PBM; molecule type: double-stranded DNA, one strand shown; matrix: in vitro; tested at: 600 nM; direction: higher = stronger binding
Target: Sal-like protein 4, full length isoform A (SALL4, Homo sapiens, UniProt Q9UJQ4, residues 1-1053)
UniProt Q9UJQ4, sequence (whole entry, looked up): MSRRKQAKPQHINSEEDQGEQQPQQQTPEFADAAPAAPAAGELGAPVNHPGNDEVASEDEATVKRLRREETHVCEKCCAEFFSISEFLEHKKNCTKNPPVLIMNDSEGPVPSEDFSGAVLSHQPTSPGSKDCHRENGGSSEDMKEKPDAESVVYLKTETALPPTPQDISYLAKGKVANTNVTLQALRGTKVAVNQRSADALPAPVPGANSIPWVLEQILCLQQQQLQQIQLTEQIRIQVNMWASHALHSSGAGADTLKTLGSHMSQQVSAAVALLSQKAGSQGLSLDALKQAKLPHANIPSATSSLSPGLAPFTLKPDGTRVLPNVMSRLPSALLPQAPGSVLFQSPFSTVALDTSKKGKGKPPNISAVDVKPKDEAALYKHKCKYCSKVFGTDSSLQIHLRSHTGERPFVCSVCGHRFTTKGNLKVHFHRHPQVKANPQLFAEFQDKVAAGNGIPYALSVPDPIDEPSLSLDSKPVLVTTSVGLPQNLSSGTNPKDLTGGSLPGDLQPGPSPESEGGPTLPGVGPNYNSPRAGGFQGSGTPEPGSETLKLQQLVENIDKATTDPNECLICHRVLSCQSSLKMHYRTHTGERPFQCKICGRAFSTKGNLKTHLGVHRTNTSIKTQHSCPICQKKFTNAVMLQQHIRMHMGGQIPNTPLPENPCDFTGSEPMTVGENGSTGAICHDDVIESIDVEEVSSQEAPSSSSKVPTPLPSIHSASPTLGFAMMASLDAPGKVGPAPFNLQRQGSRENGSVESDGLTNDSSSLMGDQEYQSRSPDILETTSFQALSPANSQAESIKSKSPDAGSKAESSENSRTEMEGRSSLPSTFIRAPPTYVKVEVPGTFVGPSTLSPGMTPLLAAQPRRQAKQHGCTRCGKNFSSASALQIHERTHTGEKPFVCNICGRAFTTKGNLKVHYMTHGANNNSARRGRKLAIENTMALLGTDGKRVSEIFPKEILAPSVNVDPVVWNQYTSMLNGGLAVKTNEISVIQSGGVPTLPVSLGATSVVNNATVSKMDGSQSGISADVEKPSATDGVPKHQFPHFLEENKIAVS
Notes: 8-mer, flanks averaged, mean of replicates
`ACAAACAT` gave an E-score of 0.204.
`CAGAAAGA` has an E-score of 0.0596.
For `AGCATGCC`, the E-score was -0.196.
With `ATAGCAGG` the E-score was -0.00685.
`GTCTGGGA` gave an E-score of -0.227.
With `CAACTTCA` the E-score was 0.0682.
`AAGTTTAC` has an E-score of 0.187.
`ATTCGATA` has an E-score of 0.283.
`CCGAGACC` has an E-score of -0.282.

Single results of other studies
`PhoQ, residues 284 288 289 292 302 303 SACGEM` gave a fold induction of 3.46 (PhoP, residues 12 14 15 18 19 SMASL (Escherichia coli, UniProt P23836); Sort-seq, refers to: YFP reporter; E. coli; PhoQ-PhoP variant library, added: 10 µM Mg2+; baseline: high Mg2+ state, higher = stronger signaling).

A few entries again (set 3):
`ACAAACAT` gave an E-score of 0.204.
`CAGAAAGA` has an E-score of 0.0596.
